Assay results of several laboratories.
Lines come from different studies, so protocols differ.

| Compound | test | test system | setting | quantity | value |
| --- | --- | --- | --- | --- | --- |
| COc1ccc(-c2c(-c3ccc(C#N)c(F)c3)nc(N3CCC(N)CC3)n(C)c2=O)cc1F | measured: cauda equina syndrome | human patients | oral, 60 mg, dose expansion | patients with serious TEAE | 0% |
| CNC(=O)c1cc(Oc2ccc(NC(=O)Nc3cc(C(C)(C)C)nn3-c3ccc4ncccc4c3)c(F)c2)ccn1 |  | human, trial | oral, 200 mg twice daily, starting dose | patients with any related serious AE | 25% |
| C[C@]1(O)C[C@@](N)(c2ccc(-c3nc4n(c3-c3ccccc3)COc3ccncc3-4)cc2)C1 |  | human, advanced or metastatic solid tumours | 16 mg once daily, phase I dose escalation | patients with Anemia TEAE | 0% |
| Cn1cncc1-c1c(F)cncc1NC(=O)c1c(N)nn2cc(F)cnc12 |  | human patients | oral, 150 mg twice daily, 4 days on 3 days off | patients grade ≥3 Platelet count decrease | 25% |
| CN(C)C(=O)c1cc2cnc(Nc3ccc(N4CCNCC4)cn3)nc2n1C1CCCC1 | measured: Pulmonary toxicity, AESI | human, HR+/HER2− advanced breast cancer | oral, dose not given, grade 3, CTCAE v4.03 | patients with adverse event | 1.2% |
| Cn1nc(NS(C)(=O)=O)c2c(Cl)ccc(-n3c([C@H](Cc4cc(F)cc(F)c4)NC(=O)Cn4nc(C(F)F)c5c4C(F)(F)[C@@H]4C[C@H]54)nc4nc(OCCC(F)(F)F)ccc4c3=O)c21 | measured: total cholesterol grade 3 increase | human | 300 mg once daily, powder in bottle | patients with laboratory abnormality | 13% |
| COc1ncnn2ccc(-c3cnc4nc(C)n(Cc5nnc([C@@H](C)F)o5)c4c3)c12 |  | human | oral, dose not given, grade 2 | patients with tumour lysis syndrome | 7.1% |
| Cc1cn([C@H]2O[C@@H](CO[P@@](=O)(N[C@@H](C)C(=O)OC(C)C)Oc3ccccc3)[C@H](O)[C@H]2F)c(=O)[nH]c1=O |  | human | oral, 25 mg once daily, 28 days | patients with any TEAE | 60% |
| N[C@@H]1c2ccccc2OC12CCN(c1cnc3c(N4CCCc5ncccc54)n[nH]c3n1)CC2 | measured: diarrhea | human advanced or metastatic solid tumours | oral, dose not given, phase Ia all doses | patients with adverse event | 57% |
| C=CC(=O)Nc1cc(Nc2nccc(Nc3cc(Cl)c(F)cc3C(C)(C)O)n2)c(OC)cc1N1CC[C@@H](N(C)C)C1 |  | human patients | oral, 100 mg, treatment-emergent adverse events | patients with paronychia | 11.1% |
| C[C@@H]1OC(=O)NN=C1c1ccc(-c2ccc(F)cc2)c(C(F)(F)F)c1 | phase I trial, measured: Ascites worst grade 2 | human patients | 20 mg loading then 1 mg daily | patients with adverse event | 50% |
| O=C1Nc2cc3[nH]nc(-c4ccncc4)c3cc2CN1Cc1ccccc1 | CTCAE v4.03 | human, relapsed or refractory advanced solid tumours | intravenous, 7.2 mg/kg | patients with retinal detachment | 33% |
| CN[C@@H](C)C(=O)N[C@H]1CN(S(=O)(=O)c2cccc(S(=O)(=O)N3CC[C@H]4CC[C@@H](C(=O)NC(c5ccccc5)c5ccccc5)N4C(=O)[C@@H](NC(=O)[C@H](C)NC)C3)c2)CC[C@H]2CC[C@@H](C(=O)NC(c3ccccc3)c3ccccc3)N2C1=O |  | human, advanced solid tumours | intravenous, 20 mg weekly, CTCAE version 4.0 | patients with any TRAE | 20% |

Excerpt of the above:
| Compound | test | test system | setting | quantity | value |
| --- | --- | --- | --- | --- | --- |
| CNC(=O)c1cc(Oc2ccc(NC(=O)Nc3cc(C(C)(C)C)nn3-c3ccc4ncccc4c3)c(F)c2)ccn1 |  | human, trial | oral, 200 mg twice daily, starting dose | patients with any related serious AE | 25% |
